Published values of several laboratories.
Numbered parts are unrelated; each lists some results of a single study. Positions count from the first letter of the parent shown.

Block 1
Target: CCNA2, cyclin fold, Cln2 fusion (human)
Method: yeast growth competition, sequencing
Medium: yeast
Notes: strong parent motif
Baseline: not given
Reading: higher = stronger binding
Starting sequence: CDT1 docking peptide (human); PPARRRLRLSVDE; partner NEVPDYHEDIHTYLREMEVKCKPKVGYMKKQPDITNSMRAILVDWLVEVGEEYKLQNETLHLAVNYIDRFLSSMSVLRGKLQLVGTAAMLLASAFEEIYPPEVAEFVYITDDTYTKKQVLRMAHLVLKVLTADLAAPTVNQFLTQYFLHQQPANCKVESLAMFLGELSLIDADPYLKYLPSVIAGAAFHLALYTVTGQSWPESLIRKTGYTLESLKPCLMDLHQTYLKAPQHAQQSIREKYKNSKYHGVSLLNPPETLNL
For `PPARRRLRLSADE [V11A]`, “normalised enrichment score” read 4.86.
`PPARRRLRFSVDE [L9F]` — result for “normalised enrichment score”: 5.8.
Under “normalised enrichment score”, `PPARRRARLSVDE [L7A]` is recorded as 1.16.
Under “normalised enrichment score”, `PAARRRLRLSVDE [P2A]` is recorded as 4.79.
Under “normalised enrichment score”, `PPARRRLRASVDE [L9A]` is recorded as 0.669.
Under “normalised enrichment score”, `PPARRALRLSVDE [R6A]` is recorded as 3.32.
For `PPARKRLRFSVDE [R5K L9F]`, “normalised enrichment score” read 3.43.
Under “normalised enrichment score”, `PPARARLRLSVDE [R5A]` is recorded as 0.717.
Under “normalised enrichment score”, `PPARARARLSVDE [R5A L7A]` is recorded as 0.102.

Block 2
Target: Histone acetyltransferase KAT6A, winged helix 2, GST fusion (KAT6A, Homo sapiens, UniProt Q92794, residues 85-181)
Method: protein binding microarray
Molecule type: double-stranded DNA, one strand shown
Medium: in vitro
Tested at: not given
Notes: 8-mer, flanks averaged, mean of 2 arrays, mostly near background
Baseline: not given
Reading: higher = stronger binding
Residues (chain): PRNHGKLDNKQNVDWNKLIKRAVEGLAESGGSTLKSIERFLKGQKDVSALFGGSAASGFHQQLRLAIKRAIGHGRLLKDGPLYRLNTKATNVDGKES
`ATGCATGA` has an E-score of -0.02.
With `AGCGGAGG` the E-score was 0.0336.
For `CAATCCCC`, the E-score was -0.0782.
For `GCAATGCA`, the E-score was 0.0774.
With `TACACCCA` the E-score was 0.0389.
The E-score of `GCTCTCAC` is reported as -0.125.
`ACCAATAA` gave an E-score of 0.00208.
`CAGTGTGC` gave an E-score of 0.05.
`CCCGTCGG` gave an E-score of 0.144.
`AGACAAAT` has an E-score of -0.00468.
The E-score of `GCGGCCGA` is reported as 0.0595.
`ACACGCTA` has an E-score of -0.118.
`GGAATCGA` has an E-score of -0.0371.
For `CGACGCGA`, the E-score was 0.127.
The E-score of `ACCTTGCG` is reported as 0.0186.
`AACGGCTT` has an E-score of 0.0223.
`CAGGACTC` has an E-score of -0.102.
With `GCCAACTA` the E-score was -0.0786.

Block 3
Target: RNA binding protein fox-1 homolog 2, RRM domain, GST-SBP tag (RBFOX2, Homo sapiens, UniProt O43251-10, residues 100-194)
Method: RNA Bind-n-Seq
Molecule type: RNA
Medium: in vitro
Tested at: 365 nM
Notes: natural RNA segment, single round, ends assumed
Baseline: no-protein control
Reading: higher = stronger binding
Constant ends, left off below: GGGAGUUCUACAGUCCGACGAUC … UGGAAUUCUCGGGUGCCAA
Target sequence (chain): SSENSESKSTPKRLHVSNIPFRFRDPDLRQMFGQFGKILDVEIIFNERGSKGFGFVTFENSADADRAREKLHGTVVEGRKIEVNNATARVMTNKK
Under “RBNS enrichment (R)”, `UCUCCUUUUUAACACACUUUCUUAGGUCUAUGGAAACUACAGGGUUGCCACUGAAAUGUUUUUUUACUUGUUGAUAGUGUCAGGGCCCCCCUUCCAUCCCCAUGGGCUUG` is recorded as 0.416.
`AACCACAUUAGCACCCUGCCAGCCUACCAGCCUCUCUGUGCACAGCUUCUAAUGUUAUGAUCUAGCUAGAUUUUUAUUUAAAAUAUGAAAAACUGCUUUUCCCAAGACGU` — result for “RBNS enrichment (R)”: 0.349.
`CUGCCCUGCCUGUCAUUGCUGCAAAGAGCUGCUGCUUUGCCAACCUAAGCAAAGAAAAUACGGCUUCUCUUGCAUUAUUUUCCCUUUUGGUUGGUUUGUUUUCUAGAAGU`: “RBNS enrichment (R)” 0.615.
Under “RBNS enrichment (R)”, `CUAAUUUAUUUUGUCUUGAGUUGUACUGCGAGAGAAGAAUAUGGGGUUUUGUAUGCCCGUGUUCCUUAAAGCCAAGGGUUUGAAAGCCACGCUGGUCUUCUGAGAUUCCA` is recorded as 0.233.
Under “RBNS enrichment (R)”, `CAAGACUGACUAGCUCUCUUUAGCCCUCUGGUGAUUCCUUCACUAUCAUGUCAACCUGGCUUAUCAUUGUGAGCCCCUGAGGUCUUUCGGGUUCUCUGUAAUACUCAAGU` is recorded as 0.281.
`ACUUGGGGAGGAAGAGGCCUGCUGUGGGGGCAUCGGAGCCAGCCAUGUAAGAAUCAGAGCUGCUCCUUCCUGUGAAUCCUAGGUGGCCCUAUGUCUUCUGUGGAGUUACA`: “RBNS enrichment (R)” 0.352.
`GCACAAGAUAGUAUGUGCCAAUAUAGCCAAGAUAAUAUGUGAAAUGGUCUUUCUAAAUGAUUAAAGAAAUCAUUUGCGUUGGUUCUUGUUUUUUGUGUUUUCCCUCUAUU` — result for “RBNS enrichment (R)”: 0.582.
`CUCAGUGAGUUGUAUAUUUAUACACCUGGCUUGAAGCCUUAAUUGUAUAUAAUGAUGCUUUUUAAAAAAUGCUAUUUGGAAGACUAUUUAUUUCUCGUGUAUAUAAUGUA` — result for “RBNS enrichment (R)”: 0.5.
`CACUUUGGGAGGCCAAGGCAGGUAGAUCACUUGAUGCCAGGAGUUCCAGACCAGGCUGGCCGACAUGGUGAAACCCCAUCUCUACUAAAAAAUAUAAAAAUUAGCCGGGC` — result for “RBNS enrichment (R)”: 0.436.
For `CUCCUAGCAGAGCUGUCUGUGCAGACUGUUUCUUAGGAGGCACAGCAAGCUCCAGGGAACCCUCUGUGCUUAUGAAGCUCGUCUGGUGGGCAACCCCAGCCCACUGGACA`, “RBNS enrichment (R)” read 0.239.
`AGAAAACAGGGGGCCUAAAGAAUGUCCCCCACCCCUUGGCCUCUGCCUCCUUGGCCCCACAUUUCUGCAAACAUAAAUAUUUACGGAUAGAUUGCUAGGUAGAUAGACAC` — result for “RBNS enrichment (R)”: 1.08.
Under “RBNS enrichment (R)”, `AUUUCCAUCUGUCUGGUUAUGUCAAGUUAAUUCAGAAAGAGAAGAGACAGUGACCAACCCUGAGAGGCCUAAUAGGGCAGAGAUGGAGGCCUGCCCAGACUAGGAGGCAG` is recorded as 0.439.

Block 4
Target: Ras GTPase-activating protein-binding protein 1, full length (G3BP1, Homo sapiens, UniProt Q13283)
UniProt Q13283, sequence (whole entry, looked up): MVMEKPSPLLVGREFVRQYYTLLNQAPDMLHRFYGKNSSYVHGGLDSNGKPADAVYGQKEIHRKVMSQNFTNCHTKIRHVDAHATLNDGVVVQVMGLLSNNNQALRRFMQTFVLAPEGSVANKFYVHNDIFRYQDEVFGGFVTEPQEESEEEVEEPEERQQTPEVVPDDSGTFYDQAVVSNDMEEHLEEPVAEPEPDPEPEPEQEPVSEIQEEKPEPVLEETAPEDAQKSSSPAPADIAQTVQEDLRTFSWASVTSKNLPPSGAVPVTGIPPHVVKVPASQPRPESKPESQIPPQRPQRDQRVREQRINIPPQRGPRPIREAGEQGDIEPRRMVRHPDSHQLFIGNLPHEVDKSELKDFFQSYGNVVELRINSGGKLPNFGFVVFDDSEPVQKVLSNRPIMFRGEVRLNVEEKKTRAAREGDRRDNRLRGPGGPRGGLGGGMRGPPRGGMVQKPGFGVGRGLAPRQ
Method: RNA Bind-n-Seq
Molecule type: RNA
Medium: in vitro
Tested at: 200 nM
Notes: whole 134-nt RNA, ends assumed
With: 150 mM KCl
Baseline: input library
Reading: higher = stronger binding
Constant ends, left off below: GGGAGUUCUACAGUCCGACGAUC … UGGAAUUCUCGGGUGUCAAGG
The log2 enrichment of `GGCGGAGCAGCUGAUGGAGGAGUGGAACGAAGACCUAGACGGCAUGGAGGGUUUCGUGCUGGAGGGCAAGAAGUUUGCGCGGCUGCCGGA` is reported as -0.735.
`ACCAUGCAGGUGGGCAUCUUUGGGAAGUGGGGCAAGGGGGGGAUAGGGAGGGGGGUAACACUUUGGGAACAGGUGGUCCCUGGUCGUUUC` gave a log2 enrichment of 1.25.
`CCUCAAGUCCUGUGCUACACAUCGUAUGUACCGAAUCGGGGAGGGAGGGAGGGAAAGUAUUAUGUUACGCCGUUCGGAUCUGCACUUCCA` gave a log2 enrichment of 1.14.
`CCUGUGCUACACAUCGUAUGUACCGAAUCGGAAAAAAAGGAAAAAAAGGGGAAAAAAAGGAAAGUAUUAUGUUACGCCGUUCGGAUCUGC` has a log2 enrichment of -0.843.
`GUCCUGUGCUACACAUCGUAUGUACCGAAUCGGGAAAAAAAGGGAAAAAGGGUUUGGGAAAGUAUUAUGUUACGCCGUUCGGAUCUGCAC` gave a log2 enrichment of -0.48.
For `UGUGCUACACAUCGUAUGUACCGAAUCGGGGAAAAAAAGGGGUUUUUUUGGGGUUUUUGGGGAAAGUAUUAUGUUACGCCGUUCGGAUCU`, the log2 enrichment was -0.174.
With `CUCAAGUCCUGUGCUACACAUCGUAUGUACCGAAUCGGGAGGGUGGGAAAGGGAAAGUAUUAUGUUACGCCGUUCGGAUCUGCACUUCCA` the log2 enrichment was 1.35.
`ACUGGACCAGAUUGUUGAAAAAGGAAGACCAGCUCCUGGCUUCCAUCAUGGCGAUGGACCGGGAAAUGCAGUUCAAGAAAUCAUGAUUCC` gave a log2 enrichment of -1.
With `UCCUGUGCUACACAUCGUAUGUACCGAAUCGGGGCCCCCCGGGCCCCCCGGCCCCCCGGGAAAGUAUUAUGUUACGCCGUUCGGAUCUGC` the log2 enrichment was -0.0567.
`CAAUGGGAAUGGACCAAAGAGUUUCAGGGAAACUCCAGUAUAUUCCAGAGUCAGAUCUAAGCUCCAGGCACGCCUGAAGAUGUGUUGCUA` has a log2 enrichment of -0.0499.
`ACCAUGCAGGUGGGCAUCUUUGGGAAGUGGGGCAAGGGGGGGAUAGGGAAAGGGGUAACACUUUGGGAACAGGUGGUCCCAGGUCGUUUC` has a log2 enrichment of 1.12.
`CAAGUCCUGUGCUACACAUCGUAUGUACCGAAUCGGGGCCCCGGCCCCGGCCCCGGAAAGUAUUAUGUUACGCCGUUCGGAUCUGCACUU` gave a log2 enrichment of -0.835.
With `ACCAUGCAGGUGGGCAUCUUUGGGAAGUGGGGCAAGGGGGGGAUAGGGAGGGGUGUAACACUUUGGGAACAGGUGGUCCCAGGUCGUUUC` the log2 enrichment was 1.23.
With `GGCACAGGUGCCCGACCAUACACUGGGAAAGUUGGUGCUGAGGAUGCCGAUGGGAUUGACAUGGCCUACCGGGUGCUGGCUGACCACGCU` the log2 enrichment was -1.06.

Block 5
Target: ABI1, truncated, D143A, DHFR fusion (Arabidopsis thaliana, UniProt P49597)
Method: DHFR PCA, dose-response
Medium: yeast
Notes: Hill fit, mean, not affinity
With: (+)-ABA, dose series
Reading: lower = more sensitive
Starting sequence: PYL1, truncated, DHFR fusion (Arabidopsis thaliana, UniProt Q8VZS8); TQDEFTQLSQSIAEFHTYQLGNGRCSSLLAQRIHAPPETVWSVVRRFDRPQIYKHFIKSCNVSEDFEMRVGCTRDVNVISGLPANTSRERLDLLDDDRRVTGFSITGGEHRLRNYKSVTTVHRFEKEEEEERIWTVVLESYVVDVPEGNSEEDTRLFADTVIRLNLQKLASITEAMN
`L93W` has an ABA EC50 of 14.4 µM.
`F56T` gave an ABA EC50 of 227 µM.
`P50C` gave an ABA EC50 of 92.1 µM.
`C25P` gave an ABA EC50 of 329 µM.
The ABA EC50 of `T17M` is reported as 12.8 µM.
With `H110G` the ABA EC50 was 273 µM.
With `Y53N` the ABA EC50 was 378 µM.
The ABA EC50 of `Y53C` is reported as 159 µM.
`V145Q` has an ABA EC50 of 42.4 µM.
For `L82V`, the ABA EC50 was 13.8 µM.
The ABA EC50 of `I79Y` is reported as 4.36 µM.
`D153E` gave an ABA EC50 of 0.452 µM.
The ABA EC50 of `P36K` is reported as 3.12 µM.
With `F103M` the ABA EC50 was 42.3 µM.
`V78S` gave an ABA EC50 of 140 µM.
The ABA EC50 of `T119Q` is reported as 6.56 µM.
For `T6P`, the ABA EC50 was 2.92 µM.
`V70P` gave an ABA EC50 of 1.44 µM.
`N61G` gave an ABA EC50 of 6.86 µM.
`D97Q` gave an ABA EC50 of 1.63 µM.
With `V142R` the ABA EC50 was 9.95 µM.
`D95T` has an ABA EC50 of 708 µM.
The ABA EC50 of `M176C` is reported as 4.63 µM.
`D3P` has an ABA EC50 of 2.32 µM.
`L91V` has an ABA EC50 of 517 µM.
